Assay results gathered from unrelated publications.
Lines come from different studies, so protocols differ. Several values in a cell are separate wells, animals, samples, runs or records. Numbers after ± are the reported error.

CN(C)[C@@H]1C(O)=C(C(N)=O)C(=O)[C@@]2(O)C(O)=C3C(=O)c4c(O)cccc4[C@@](C)(O)[C@H]3C[C@@H]12  amount permeated (starch gel membrane permeability; Gram-negative envelope surrogate; 200 µM, 45 min, pH 7.4): 2.46 nmol
O=C(O)CCc1ccc(O)c(OS(=O)(=O)O)c1  plasma concentration (human plasma; mean): 1700 nM
CC(C)c1nc(CN(C)C(=O)N[C@@H](CCN2CCOCC2)C(=O)N[C@H](CC[C@H](Cc2ccccc2)NC(=O)OCc2cncs2)Cc2ccccc2)cs1  drug-related TEAE incidence (item: Dizziness; human; oral, 150 mg): 0%
COc1ccc(C=CC(=O)O)cc1O[C@@H]1O[C@H](C(=O)O)[C@@H](O)[C@H](O)[C@H]1O  plasma concentration (human plasma; median): 697 nM
Cc1ccc(Sc2ccccc2N2CCNCC2)c(C)c1  participants with TEAE (item: Diarrhea; healthy adult men; oral, 10 mg daily, 12 days): 0%
CCc1cc(C(=O)NC)c2nccc(N3CCc4c(cc(Cn5ccnc5)cc4-c4cn(C)nc4C(F)(F)F)C3=O)c2c1  blood Lymph change (Sprague Dawley rats; oral, 100 mg/kg twice daily, 7 days; relative to: vehicle): -26.8%
O=C(O)CCCOc1ccc([18F])cc1-c1cc(-c2ccccc2C(F)(F)F)n(-c2ccccc2)n1  radioactivity uptake (gamma counting; male ddY mice, bone; intravenous, 2.1 MBq, 5 min): 1.02 ± 0.19 SUV
Cc1cc(-c2nnc(N)nc2-c2ccc(F)cc2)cc(Cl)n1  patients with treatment-related adverse events (item: Nausea; human phase Ia/Ib colorectal cancer, immunotherapy-naive; oral, dose not given): 48%
COc1cccc(OC)c1-c1cc(C(=O)NC2(C(=O)O)C3CC4CC(C3)CC2C4)nn1-c1ccc(C(=O)N(C)CCCN(C)CCCN(C)C(=O)CN2CCN(CC(=O)[O-])CCN(CC(=O)[O-])CCN(CC(=O)[O-])CC2)cc1C(C)C.[177Lu+3] (centres unmarked)  tissue uptake (mouse, HT-29 xenograft, kidney; 168 h post injection): 0.2 ± 0.04 %ID/g
Cc1nc(-c2ccc(OCC(C)C)c(C#N)c2)sc1C(=O)O  body weight (KM mouse, chronic hyperuricaemia model; dose not given, day 23): 32.4 g and 38.8 g and 34.3 g and 43.3 g and 36.7 g and 40.5 g
N#Cc1ccc2c(c1)[C@H]1CCCN(C(=O)c3ccc4[nH]cnc4c3)[C@H]1C2  ACTH level change (human; 240 mg, end of trial; relative to: baseline): -1.4 pmol/L
COc1cc(C[C@@H](CO)[C@H](CO)Cc2ccc(O)c(OC)c2)ccc1O  plasma concentration (human plasma; median): 1810 nM
N#C[C@@]12C[C@@H]1[C@@H](n1cnc3c(N[C@@H](C4CCC4)C4CC4)nc(I)nc31)[C@H](O)[C@@H]2O  clearance (Wistar rats male, plasma; oral, 10.0 mg/kg): 477 mL/min/kg
Cn1c(=O)c2[nH]cnc2n(C)c1=O  samples above LOQ (human, both sexes, cerebrospinal fluid): 43.3%
Cc1c(-c2ccc(N3CCc4cccc(C(=O)Nc5nc6ccccc6s5)c4C3)nc2C(=O)O)cnn1CC12CC3(C)CC(C)(C1)CC(OCCNCC[C@H](O)CO)(C3)C2  mean arterial pressure change (beagle dog, male, anaesthetised; intravenous infusion, 0.3 mg/kg/min, 90 min; relative to: vehicle): -30%
O=C(N[C@H](Cc1c[nH]c2ccccc12)C(=O)Nc1ccncc1)c1ccc(-c2ccc(F)c(Cl)c2)cc1F  concentration (Swiss Webster mouse, female, heart; oral, 50 mg/kg, 2 h, 20% HPβCD vehicle): 4.08 µM
CN(C)c1cc(NC(=O)CNC(C)(C)C)c(O)c2c1C[C@H]1C[C@H]3[C@H](N(C)C)C(O)=C(C(N)=O)C(=O)[C@@]3(O)C(O)=C1C2=O  amount permeated (starch gel membrane permeability; Gram-negative envelope surrogate; 200 µM, 90 min, pH 7.4): 3.48 nmol
C[C@H]1CN(C(=O)CC#N)[C@]12CCN(c1ncnc3[nH]ccc13)C2  AUC(0-last) (healthy Japanese males; oral, 1 mg single dose, mean): 29 ng·h/mL
CCC[C@@H]1C[C@@H](C(=O)N[C@@H]([C@H]2O[C@H](SC)[C@H](O)[C@@H](O)[C@H]2O)[C@@H](C)O)N(C)C1  amount permeated (starch gel membrane permeability; Gram-negative envelope surrogate; 200 µM, 45 min, pH 7.4): 2.01 nmol
O=c1oc2cc(O)ccc2c2cc(O)ccc12  plasma concentration (human plasma; mean): 1110 nM
CC(C)NCCCC[C@@H]1NC(=O)[C@H](Cc2ccc(O)cc2)NC(=O)[C@H](Cc2ccccc2)NC(=O)CC[C@H](C(=O)N[C@@H](CCCCNC(C)C)C(=O)N[C@@H](CCCCNC(=O)[C@H](CCC(=O)O)NC(=O)[C@H](CCC(=O)O)NC(=O)[C@H](CCC(=O)O)NC(=O)CN2CCN(CC(=O)O)CCN(CC(=O)O)CCN(CC(=O)O)CC2)C(N)=O)NC(=O)CNC(=O)[C@H](Cc2ccc3ccccc3c2)NC(=O)[C@@H](CCCNC(=N)N)NC1=O [gallium-68 labelled]  tissue uptake (mouse with PC-3 xenograft, pancreas; intravenous, 1 h): 0.13 %ID/g
N#CCNC(=O)c1ccc(-c2ccnc(Nc3ccc(N4CCOCC4)cc3)n2)cc1  AUCtau increase (healthy volunteers, plasma; oral, dose not given, together with: ritonavir multiple-dose; relative to: compound alone): 14%
O=[N+]([O-])c1ccc(-c2ccc(O)cc2)c2cccnc12  elimination rate constant (male ICR mouse, plasma; intravenous, 1 mg/kg): 0.00153 s⁻¹
COc1cccc(-c2n[nH]c(SCc3ccccn3)n2)c1OC  AUC(0-last) (Sprague-Dawley rat, female, plasma; oral gavage, 30 mg/kg): 73500 ng·h/mL
COc1cc(Nc2ncc3c(n2)-c2ccc(Cl)cc2C(c2c(F)cccc2OC)=NC3)ccc1C(=O)O  patients with adverse event (item: Headache, all grades; cancer patients, phase 1/2; oral, dose not given, together with: pembrolizumab): 13%
COC(=O)C[C@H](NC(=O)[C@H](Cc1ccccc1)NC(=O)C[C@H](CC(C)C)NC(=O)[C@H](CC(=O)OC)NC(=O)[C@H](Cc1cccnc1)NC(=O)CCCCCNC(=O)CCCCCNC(=O)CCCc1cn(CCF)nn1)C(=O)COC(=O)c1ccc(C)s1 [fluorine-18 labelled]  tumour uptake (xenograft tumour; conatumumab-treated): < 0.2 %ID/g
CCN1/C(=C/C(C)=O)Sc2ccc(F)cc21  mean blood pressure (cynomolgus monkey; oral, 30 mg/kg, 1 h post-dose): 85 ± 6 mmHg
Cc1cc(Nc2cc3ncccc3c(N[C@@H]3C[C@H]4CC[C@@H](C3)N4CCC#N)n2)n[nH]1  AUC(0-24) (human, plasma; 100 mg single dose, mean): 13.5 ng·h/mL
Cc1cc(-c2nccc3c2ccn3CC(=O)Nc2ccc(-c3cnccn3)cn2)ccn1  subjects with Dizziness TEAEs (human; SAD part, single 7 mg dose): 0%
CC(C)(C(=O)N1CCOc2c(C#N)cncc2C1)C(F)F  subjects with TEAE (item: ventricular extrasystoles; healthy humans, both sexes; oral, 40 mg single dose): 16.7%
NC1(C(=O)N[C@@H](CCO)c2ccc(Cl)cc2)CCN(c2nc[nH]c3nccc2-3)CC1  incidence of Dysgeusia (metastatic CRPC patients; dose not given, any grade, treatment-related, all doses, together with: enzalutamide 160 mg daily): 6.7%
COc1ccc(C=CC(=O)O)cc1OS(=O)(=O)O  plasma concentration (human plasma; median): 424 nM
OCCOCc1ccc(-c2noc(-c3ccc(OCC[18F])c(C(F)(F)F)c3)n2)cc1  absorbed radiation dose (Macaca mulatta, gallbladder; female phantom OLINDA/EXM): 0.31 mSv/MBq
CCn1c(=O)c(-c2cc(NC(=O)Nc3ccccc3)c(F)cc2Br)cc2cnc(NC)cc21  participants with grade ≥ 3 TEAE (item: investigations; human, moderate hepatic impairment; oral, 50 mg single dose): 12.5%
C=CC(=O)NC1CCN(c2ncc3ncnc(Nc4ccc(Oc5ccc6c(c5)ncn6C)c(C)c4)c3n2)CC1  adverse events incidence (item: eye disorders (SOC); human male; oral, dose not given, CTCAE on-treatment AEs): 0%
COc1cc2c3c(n(CCCN4CCOCC4)c(=O)c2cc1OC)-c1cc2c(cc1C3=O)OCO2  neutrophil count decrease (rat; intravenous, 48 mg/m^2, 5 days once daily; relative to: control): ≤ 80%
O=C(O)CCC(=O)O.[2H]C([2H])([2H])Oc1cc(C)c2[nH]ccc2c1CN1CC[C@@H](C2CC2)C[C@H]1c1ccc(C(=O)O)cc1  subjects with any TEAE (multiple ascending dose; healthy Chinese subjects; 300 mg once daily): 62.5%
CN(C)c1ccc(O)c2c1C[C@H]1C[C@H]3[C@H](N(C)C)C(O)=C(C(N)=O)C(=O)[C@@]3(O)C(O)=C1C2=O  amount permeated (starch gel membrane permeability; Gram-negative envelope surrogate; 200 µM, 60 min, pH 7.4): 1.73 nmol
O=C(Nc1cnccc1Cl)N1CCN(Cc2ccc3c(c2)OC(F)(F)O3)CC1  t1/2 (elderly men and women, plasma; oral, 100 mg once daily, day 10): 13.2 h
OCCc1ccc(O)cc1  plasma concentration (human plasma; mean): 2230 nM
Cc1c2oc3c(C)ccc(C(=O)N[C@@H]4C(=O)N[C@H](C(C)C)C(=O)N5CCC[C@H]5C(=O)N(C)CC(=O)N(C)[C@@H](C(C)C)C(=O)O[C@@H]4C)c3nc-2c(C(=O)N[C@@H]2C(=O)N[C@H](C(C)C)C(=O)N3CCC[C@H]3C(=O)N(C)CC(=O)N(C)[C@@H](C(C)C)C(=O)O[C@@H]2C)c(N)c1=O  minimum plasma concentration (children with cancer, plasma; dose not given, 15 min): 5.3 µg/L
Nc1nc2c(nc([N+](=O)[O-])n2[C@@H]2O[C@H](CO)[C@@H](O)[C@H]2O)c(=O)[nH]1  nucleoside remaining fraction (depurination, RP-HPLC; citrate-phosphate buffer 0.5 mM; 1350 min, pH 5, 37 °C): 0.409
Cn1nc2c(=O)n(C3CC3)ncc2c1[C@](N)(c1ccc(C(F)(F)F)c(Cl)c1)C1CC1  CL (rat Sprague-Dawley male, plasma; intravenous, 1 mg/kg): 1.54 ± 0.288 mL/min/kg
NC[C@@]1(CC(=O)O)[C@@H]2CC[C@H]3C[C@@H]2[C@@H]1C3  unbound Cmax increase (human, moderate renal impairment, plasma; dose not given; relative to: normal renal function): 13.2%

Repeated from above:
CC(C)NCCCC[C@@H]1NC(=O)[C@H](Cc2ccc(O)cc2)NC(=O)[C@H](Cc2ccccc2)NC(=O)CC[C@H](C(=O)N[C@@H](CCCCNC(C)C)C(=O)N[C@@H](CCCCNC(=O)[C@H](CCC(=O)O)NC(=O)[C@H](CCC(=O)O)NC(=O)[C@H](CCC(=O)O)NC(=O)CN2CCN(CC(=O)O)CCN(CC(=O)O)CCN(CC(=O)O)CC2)C(N)=O)NC(=O)CNC(=O)[C@H](Cc2ccc3ccccc3c2)NC(=O)[C@@H](CCCNC(=N)N)NC1=O [gallium-68 labelled]  tissue uptake (mouse with PC-3 xenograft, pancreas; intravenous, 1 h): 0.13 %ID/g
N#CCNC(=O)c1ccc(-c2ccnc(Nc3ccc(N4CCOCC4)cc3)n2)cc1  AUCtau increase (healthy volunteers, plasma; oral, dose not given, together with: ritonavir multiple-dose; relative to: compound alone): 14%
NC1(C(=O)N[C@@H](CCO)c2ccc(Cl)cc2)CCN(c2nc[nH]c3nccc2-3)CC1  incidence of Dysgeusia (metastatic CRPC patients; dose not given, any grade, treatment-related, all doses, together with: enzalutamide 160 mg daily): 6.7%
COc1cc(Nc2ncc3c(n2)-c2ccc(Cl)cc2C(c2c(F)cccc2OC)=NC3)ccc1C(=O)O  patients with adverse event (item: Headache, all grades; cancer patients, phase 1/2; oral, dose not given, together with: pembrolizumab): 13%
